Assay results collected from several papers.
Lines come from different studies, so protocols differ. Numbers after ± are the reported error.
GLP1R: Glucagon-like peptide 1 receptor (GLP1R, Homo sapiens, UniProt P43220)
DCN1-like protein 1: DCN1-like protein 1 (Homo sapiens, UniProt Q96GG9)
UniProt Q96GG9, sequence (whole entry, looked up): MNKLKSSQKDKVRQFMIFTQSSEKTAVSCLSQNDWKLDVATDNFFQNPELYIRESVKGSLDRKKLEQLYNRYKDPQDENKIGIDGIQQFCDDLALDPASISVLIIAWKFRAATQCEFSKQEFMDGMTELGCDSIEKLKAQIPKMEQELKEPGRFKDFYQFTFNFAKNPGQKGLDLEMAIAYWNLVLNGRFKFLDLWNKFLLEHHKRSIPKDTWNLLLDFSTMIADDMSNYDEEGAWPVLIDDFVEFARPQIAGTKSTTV
UniProt P21730, sequence (whole entry, looked up): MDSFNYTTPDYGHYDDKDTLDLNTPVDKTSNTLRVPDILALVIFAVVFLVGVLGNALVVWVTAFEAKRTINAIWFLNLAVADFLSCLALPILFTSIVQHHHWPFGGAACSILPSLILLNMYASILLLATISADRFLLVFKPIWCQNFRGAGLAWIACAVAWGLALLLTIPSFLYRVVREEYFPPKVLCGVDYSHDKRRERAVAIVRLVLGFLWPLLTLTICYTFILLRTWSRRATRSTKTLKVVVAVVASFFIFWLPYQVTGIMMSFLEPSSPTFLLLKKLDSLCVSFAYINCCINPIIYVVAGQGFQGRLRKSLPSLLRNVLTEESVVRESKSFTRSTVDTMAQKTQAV
UniProt Q13310, sequence (whole entry, looked up): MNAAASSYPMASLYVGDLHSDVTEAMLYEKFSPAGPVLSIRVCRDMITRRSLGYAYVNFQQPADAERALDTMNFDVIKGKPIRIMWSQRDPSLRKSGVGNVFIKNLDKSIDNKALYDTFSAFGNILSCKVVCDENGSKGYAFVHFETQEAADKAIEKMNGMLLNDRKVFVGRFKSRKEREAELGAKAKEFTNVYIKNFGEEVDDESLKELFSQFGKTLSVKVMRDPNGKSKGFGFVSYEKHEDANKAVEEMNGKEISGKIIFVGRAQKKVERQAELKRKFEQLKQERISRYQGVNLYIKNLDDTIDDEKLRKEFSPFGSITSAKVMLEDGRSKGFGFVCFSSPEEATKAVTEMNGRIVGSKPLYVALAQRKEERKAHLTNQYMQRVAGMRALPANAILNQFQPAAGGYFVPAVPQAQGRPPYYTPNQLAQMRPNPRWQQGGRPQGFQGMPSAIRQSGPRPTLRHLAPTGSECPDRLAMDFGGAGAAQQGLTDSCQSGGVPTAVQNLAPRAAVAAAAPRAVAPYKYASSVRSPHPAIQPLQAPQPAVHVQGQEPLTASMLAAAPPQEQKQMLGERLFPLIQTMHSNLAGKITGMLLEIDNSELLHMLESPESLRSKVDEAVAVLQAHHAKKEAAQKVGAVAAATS
UniProt P10635, sequence (whole entry, unmodified, looked up): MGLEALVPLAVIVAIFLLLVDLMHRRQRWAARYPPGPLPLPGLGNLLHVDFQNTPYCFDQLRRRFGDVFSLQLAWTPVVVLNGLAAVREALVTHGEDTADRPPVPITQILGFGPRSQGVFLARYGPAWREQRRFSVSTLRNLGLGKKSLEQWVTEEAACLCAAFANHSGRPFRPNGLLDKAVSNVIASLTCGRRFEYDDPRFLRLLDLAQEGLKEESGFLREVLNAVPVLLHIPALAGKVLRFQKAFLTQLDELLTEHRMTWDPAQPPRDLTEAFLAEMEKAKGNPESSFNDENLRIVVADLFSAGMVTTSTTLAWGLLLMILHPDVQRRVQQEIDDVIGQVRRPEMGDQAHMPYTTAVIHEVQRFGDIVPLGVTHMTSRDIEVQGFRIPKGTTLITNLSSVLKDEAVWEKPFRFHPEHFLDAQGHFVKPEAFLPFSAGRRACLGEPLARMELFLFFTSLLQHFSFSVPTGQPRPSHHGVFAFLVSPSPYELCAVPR
UniProt Q9GZQ6, sequence (whole entry, looked up): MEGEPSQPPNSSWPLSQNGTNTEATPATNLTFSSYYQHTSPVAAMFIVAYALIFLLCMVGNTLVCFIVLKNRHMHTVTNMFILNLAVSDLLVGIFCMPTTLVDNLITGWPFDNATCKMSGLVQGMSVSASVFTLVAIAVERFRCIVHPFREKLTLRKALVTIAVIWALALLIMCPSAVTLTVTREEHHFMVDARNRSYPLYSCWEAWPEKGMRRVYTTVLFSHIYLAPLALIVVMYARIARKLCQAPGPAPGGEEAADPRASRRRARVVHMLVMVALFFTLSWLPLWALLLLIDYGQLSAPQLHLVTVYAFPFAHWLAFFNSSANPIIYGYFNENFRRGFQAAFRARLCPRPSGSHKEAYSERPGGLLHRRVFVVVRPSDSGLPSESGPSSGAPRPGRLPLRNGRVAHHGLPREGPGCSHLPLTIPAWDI
UniProt Q8NET8, sequence (whole entry, unmodified, looked up): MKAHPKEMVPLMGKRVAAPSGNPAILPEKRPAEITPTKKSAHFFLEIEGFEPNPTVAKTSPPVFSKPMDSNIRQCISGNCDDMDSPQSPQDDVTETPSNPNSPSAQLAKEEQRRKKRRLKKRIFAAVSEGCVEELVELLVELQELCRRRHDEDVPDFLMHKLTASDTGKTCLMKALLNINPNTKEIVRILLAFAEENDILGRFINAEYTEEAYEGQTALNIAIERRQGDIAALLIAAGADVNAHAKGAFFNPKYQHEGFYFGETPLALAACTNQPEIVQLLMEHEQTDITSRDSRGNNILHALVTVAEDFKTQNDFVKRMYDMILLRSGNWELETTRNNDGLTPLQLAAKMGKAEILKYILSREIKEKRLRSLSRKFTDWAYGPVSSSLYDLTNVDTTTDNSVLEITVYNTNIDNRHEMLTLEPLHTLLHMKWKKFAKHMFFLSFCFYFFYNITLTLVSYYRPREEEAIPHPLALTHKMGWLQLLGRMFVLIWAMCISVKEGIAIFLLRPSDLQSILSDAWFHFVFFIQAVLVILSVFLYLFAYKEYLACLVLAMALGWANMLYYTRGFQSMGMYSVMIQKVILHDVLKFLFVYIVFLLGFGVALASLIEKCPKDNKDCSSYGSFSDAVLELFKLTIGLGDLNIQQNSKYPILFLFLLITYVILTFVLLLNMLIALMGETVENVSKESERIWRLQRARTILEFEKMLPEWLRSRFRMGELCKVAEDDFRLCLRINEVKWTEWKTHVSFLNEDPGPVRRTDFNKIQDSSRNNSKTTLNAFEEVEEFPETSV
UniProt P0DW57, sequence (whole entry, looked up): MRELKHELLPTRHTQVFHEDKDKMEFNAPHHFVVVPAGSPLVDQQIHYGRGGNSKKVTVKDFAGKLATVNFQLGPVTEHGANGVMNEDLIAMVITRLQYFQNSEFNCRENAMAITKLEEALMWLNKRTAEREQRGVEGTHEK

With CC[C@H](C)[C@H](NC(=O)[C@H](Cc1ccccc1)NC(=O)[C@H](CCC(=O)O)NC(=O)[C@H](CCCNC(=N)N)NC(=O)[C@H](C)NC(=O)[C@H](C)NC(=O)[C@H](CCC(N)=O)NC(=O)[C@H](CCC(=O)O)NC(=O)[C@H](CCC(=O)O)NC(=O)[C@H](CC(C)C)NC(=O)[C@H](Cc1ccc(O)cc1)NC(=O)[C@H](CO)NC(=O)[C@H](CO)NC(=O)[C@@H](NC(=O)[C@H](CC(=O)O)NC(=O)[C@H](CO)NC(=O)[C@@H](NC(=O)[C@H](Cc1ccccc1)NC(=O)[C@@H](NC(=O)CNC(=O)[C@H](CCC(=O)O)NC(=O)[C@H](C)NC(=O)CCc1cnc[nH]1)[C@@H](C)O)[C@@H](C)O)C(C)C)C(=O)N[C@@H](C)C(=O)N[C@@H](Cc1c[nH]c2ccccc12)C(=O)N[C@@H](CC(C)C)C(=O)N[C@H](C(=O)N[C@@H](CCCNC(=N)N)C(=O)NCC(=O)N[C@@H](CCCNC(=N)N)C(=O)N[C@@H](CCCCNC(=O)COCCOCCNC(=O)COCCOCCNC(=O)CC[C@H](NC(=O)CCCCCCCCCCCCCCCCC(=O)O)C(=O)O)C(=O)NCC(=O)NCC(=O)N[C@@H](CO)C(=O)N[C@@H](CCSC)C(=O)N[C@H](C(=O)N[C@@H](CCCCNc1c(NCCCCCN(O)C(=O)CCC(=O)NCCCCCN(O)C(=O)CCC(=O)NCCCCCN(O)C(C)=O)c(=O)c1=O)C(=O)O)C(C)C)C(C)C the EC50 was 0.16 nM (GLP1R; cAMP reporter gene, agonist, CRE luciferase; BHK; without Zr, 1% HSA).
CC[C@H](C)[C@@H]1NC(=O)[C@@H]2CCCN2C(=O)[C@H](CC(C)C)NC(=O)[C@H](CC(C)C)NC(=O)CNC(=O)[C@@H](NC(=O)[C@@H](NC(=O)[C@H](CC(=O)O)NC(=O)CNC(=O)[C@@H](NC(=O)[C@H](C)NC(=O)CNC(=O)[C@H](CCCCN)NC(=O)[C@H](CC(C)C)NC(=O)[C@H](CC(C)C)NC(=O)[C@H](CCCCN)NC(=O)CNC(=O)[C@@H](NC(=O)[C@@H](N)CC(C)C)C(C)C)C(C)C)C(C)C)CSSC[C@@H](C(=O)O)NC1=O: “log2 fold change” -1.6 (RNA-seq, item: Btg2; mouse, traumatic brain injury model, frontal cortex and hippocampus; dose not given; baseline: TBI alone).
For Oc1ccc2c3c1O[C@H]1[C@@H](O)CC[C@@]4(O)[C@@H](C2)N(CC2CCC2)CC[C@]314, “log2 fold change” read 0.164 (Neuropeptide FF receptor 1 (NPFFR1, Homo sapiens, UniProt Q9GZQ6); β-arrestin recruitment, TANGO luminescence, item: NPFF1; concentration not given; baseline: basal luminescence).
For CC[C@H](C)[C@H](NC(=O)[C@H](Cc1ccccc1)NC(=O)[C@H](CCC(=O)O)NC(=O)[C@H](CCCNC(=N)N)NC(=O)[C@H](C)NC(=O)[C@H](C)NC(=O)[C@H](CCC(N)=O)NC(=O)[C@H](CCC(=O)O)NC(=O)[C@H](CCC(=O)O)NC(=O)[C@H](CC(C)C)NC(=O)[C@H](Cc1ccc(O)cc1)NC(=O)[C@H](CO)NC(=O)[C@H](CO)NC(=O)[C@@H](NC(=O)[C@H](CC(=O)O)NC(=O)[C@H](CO)NC(=O)[C@@H](NC(=O)[C@H](Cc1ccccc1)NC(=O)[C@@H](NC(=O)CNC(=O)[C@H](CCC(=O)O)NC(=O)[C@H](C)NC(=O)CCc1cnc[nH]1)[C@@H](C)O)[C@@H](C)O)C(C)C)C(=O)N[C@@H](C)C(=O)N[C@@H](Cc1c[nH]c2ccccc12)C(=O)N[C@@H](CC(C)C)C(=O)N[C@H](C(=O)N[C@@H](CCCCNC(=O)COCCOCCNC(=O)COCCOCCNC(=O)CC[C@H](NC(=O)CCCCCCCCCCCCCCCCC(=O)O)C(=O)O)C(=O)NCC(=O)N[C@@H](CCCNC(=N)N)C(=O)N[C@@H](CCCCNc1c(NCCCCCN(O)C(=O)CCC(=O)NCCCCCN(O)C(=O)CCC(=O)NCCCCCN(O)C(C)=O)c(=O)c1=O)C(=O)NCC(=O)NCC(=O)N[C@@H](CO)C(=O)N[C@@H](CCCCNc1c(NCCCCCN(O)C(=O)CCC(=O)NCCCCCN(O)C(=O)CCC(=O)NCCCCCN(O)C(C)=O)c(=O)c1=O)C(=O)O)C(C)C, the EC50 was 0.0057 nM (GLP1R; cAMP reporter gene, agonist, CRE luciferase; BHK; with Zr, 0% HSA).
The Kd of Nc1ncnc2c1ncn2[C@@H]1O[C@@H]2COP(=O)(O)OP(=O)(O)OC[C@H]3O[C@@H](O[C@H]2[C@H]1O)[C@H](O)[C@@H]3O is reported as 0.21 µM (Thoeris anti-defense 1 (tad1, Bacillus phage SBSphiJ7, UniProt P0DW57); binding).
For Cc1nn(-c2ccccc2)c2c1[C@H](c1ccc(F)cc1)[C@H](NC(=O)c1cccc(C(F)(F)F)c1)C(=O)N2CCNS(C)(=O)=O, the IC50 was greater than 15 µM (DCN1-like protein 1).
CC[C@H](C)[C@H](NC(=O)[C@H](Cc1ccccc1)NC(=O)[C@H](CCC(=O)O)NC(=O)[C@H](CCCNC(=N)N)NC(=O)[C@H](C)NC(=O)[C@H](C)NC(=O)[C@H](CCC(N)=O)NC(=O)[C@H](CCC(=O)O)NC(=O)[C@H](CCC(=O)O)NC(=O)[C@H](CC(C)C)NC(=O)[C@H](Cc1ccc(O)cc1)NC(=O)[C@H](CO)NC(=O)[C@H](CO)NC(=O)[C@@H](NC(=O)[C@H](CC(=O)O)NC(=O)[C@H](CO)NC(=O)[C@@H](NC(=O)[C@H](Cc1ccccc1)NC(=O)[C@@H](NC(=O)CNC(=O)[C@H](CCC(=O)O)NC(=O)[C@H](C)NC(=O)CCc1cnc[nH]1)[C@@H](C)O)[C@@H](C)O)C(C)C)C(=O)N[C@@H](C)C(=O)N[C@@H](Cc1c[nH]c2ccccc12)C(=O)N[C@@H](CC(C)C)C(=O)N[C@H](C(=O)N[C@@H](CCCNC(=N)N)C(=O)NCC(=O)N[C@@H](CCCNC(=N)N)C(=O)N[C@@H](CCCCNC(=O)COCCOCCNC(=O)COCCOCCNC(=O)CC[C@H](NC(=O)CCCCCCCCCCCCCCCCC(=O)O)C(=O)O)C(=O)NCC(=O)NCC(=O)N[C@@H](CO)C(=O)N[C@@H](CCCCNC(=O)[C@H](CCCCNc1c(NCCCCCN(O)C(=O)CCC(=O)NCCCCCN(O)C(=O)CCC(=O)NCCCCCN(O)C(C)=O)c(=O)c1=O)Nc1c(NCCCCCN(O)C(=O)CCC(=O)NCCCCCN(O)C(=O)CCC(=O)NCCCCCN(O)C(C)=O)c(=O)c1=O)C(=O)O)C(C)C gave an EC50 of 0.0056 nM (GLP1R; cAMP reporter gene, agonist, CRE luciferase; BHK; without Zr, 0% HSA).
CC[C@H](C)[C@H](NC(=O)[C@H](Cc1ccccc1)NC(=O)[C@H](CCC(=O)O)NC(=O)[C@H](CCCNC(=N)N)NC(=O)[C@H](C)NC(=O)[C@H](C)NC(=O)[C@H](CCC(N)=O)NC(=O)[C@H](CCC(=O)O)NC(=O)[C@H](CCC(=O)O)NC(=O)[C@H](CC(C)C)NC(=O)[C@H](Cc1ccc(O)cc1)NC(=O)[C@H](CO)NC(=O)[C@H](CO)NC(=O)[C@@H](NC(=O)[C@H](CC(=O)O)NC(=O)[C@H](CO)NC(=O)[C@@H](NC(=O)[C@H](Cc1ccccc1)NC(=O)[C@@H](NC(=O)CNC(=O)[C@H](CCC(=O)O)NC(=O)[C@H](C)NC(=O)CCc1c[nH]cn1)[C@@H](C)O)[C@@H](C)O)C(C)C)C(=O)N[C@@H](C)C(=O)N[C@@H](Cc1c[nH]c2ccccc12)C(=O)N[C@@H](CC(C)C)C(=O)N[C@H](C(=O)N[C@@H](CCCNC(=N)N)C(=O)NCC(=O)N[C@@H](CCCNC(=N)N)C(=O)N[C@@H](CCCCNC(=O)COCCOCCNC(=O)COCCOCCNC(=O)CC[C@H](NC(=O)CCCCCCCCCCCCCCCCC(=O)O)C(=O)O)C(=O)NCC(=O)NCC(=O)N[C@@H](CO)C(=O)N[C@@H](CCCCNc1c(NCCCCCN(O)C(=O)CCC(=O)NCCCCCN(O)C(=O)CCC(=O)NCCCCCN(O)C(C)=O)c(=O)c1=O)C(=O)O)C(C)C [zirconium-89 labelled] gave a tissue uptake of 0.13 %ID/g (rat, intestine; sc, 3 nmol/kg, 4 h, ex vivo).
CCCc1cc(O)c2c(c1)OC(C)(C)[C@@H]1CCC(C)=C[C@@H]21 has an EC50 of 20300 ± 1410 nM (Transient receptor potential cation channel subfamily V member 3 (TRPV3, Homo sapiens, UniProt Q8NET8, N561A); calcium uptake, agonist; HEK293S; mutant N561A, site 1).
For COc1cc(Nc2ncc(F)c(Nc3ccc4c(n3)NC(=O)C(C)(C)O4)n2)cc(OC)c1OC, the IC50 was greater than 10 µM (C5a anaphylatoxin chemotactic receptor 1 (C5AR1, Homo sapiens, UniProt P21730)).
CO[C@H]1C[C@@H]2CC[C@@H](C)[C@@](O)(O2)C(=O)C(=O)N2CCCC[C@H]2C(=O)O[C@H]([C@H](C)C[C@@H]2CC[C@@H](OC(=O)NCCOCCOCCOCCOCCOCCOCCOCCOCCC(=O)N3CCc4cc(Cn5nc(-c6ccc7oc(N)nc7c6)c6c(N)ncnc65)ccc4C3)[C@H](OC)C2)C[C@@H](O)[C@H](C)/C=C(\C)[C@@H](O)[C@@H](OC)C(=O)[C@H](C)C[C@H](C)/C=C/C=C/C=C/1C — result for “dose-reducing adverse events”: 0% (phase 1 dose escalation, item: gastric haemorrhage; advanced solid tumour patients; intravenous, 6 mg weekly, grade ≥3).
CCN1C(=O)[C@@H](NC(=O)c2cc(C(F)(F)F)ccn2)[C@@H](c2ccc(F)cc2)c2c(C)nn(-c3ccccc3)c21 gave an IC50 of greater than 15 µM (DCN1-like protein 1).
With CC(NC(C)(C)C)C(=O)c1cccc(Cl)c1 (stereo not drawn) the IC50 was 112 µM (Cytochrome P450 2D6 (CYP2D6, Homo sapiens, UniProt P10635, P34S/S486T); pH 7.4).
For C[C@H]1CN(c2n[nH]c3nc(N[C@H]4CC[C@H](NS(=O)(=O)CCC(F)(F)F)CC4)ncc23)CCO1, the IC50 was no less than 20 µM (Polyadenylate-binding protein 4 (Homo sapiens, UniProt Q13310); biochemical).
C[C@@H](O)[C@@H](CO)NC(=O)[C@@H](CCCNC(=N)N)NC(=O)[C@@H]1CCCN1C(=O)[C@@H]1CSSC[C@H](NC(=O)[C@H](Cc2ccccc2)NC(=O)CN2CCN(CC(=O)O)CCN(CC(=O)O)CCN(CC(=O)O)CC2)C(=O)N[C@@H](Cc2ccc(O)cc2)C(=O)N[C@@H](Cc2ccccc2)C(=O)N[C@@H](CCC(N)=O)C(=O)N[C@@H](CC(N)=O)C(=O)N1 [gallium-68 labelled] has a tissue uptake of 0.14 %ID/g (Wistar rat, healthy, sublingual gland; intravenous, 8 MBq, 60 min, mean).

For quick reference, copied from above:
For COc1cc(Nc2ncc(F)c(Nc3ccc4c(n3)NC(=O)C(C)(C)O4)n2)cc(OC)c1OC, the IC50 was greater than 10 µM (C5a anaphylatoxin chemotactic receptor 1 (C5AR1, Homo sapiens, UniProt P21730)).
C[C@@H](O)[C@@H](CO)NC(=O)[C@@H](CCCNC(=N)N)NC(=O)[C@@H]1CCCN1C(=O)[C@@H]1CSSC[C@H](NC(=O)[C@H](Cc2ccccc2)NC(=O)CN2CCN(CC(=O)O)CCN(CC(=O)O)CCN(CC(=O)O)CC2)C(=O)N[C@@H](Cc2ccc(O)cc2)C(=O)N[C@@H](Cc2ccccc2)C(=O)N[C@@H](CCC(N)=O)C(=O)N[C@@H](CC(N)=O)C(=O)N1 [gallium-68 labelled] has a tissue uptake of 0.14 %ID/g (Wistar rat, healthy, sublingual gland; intravenous, 8 MBq, 60 min, mean).
